Published values pooled from the literature.
Parts stem from different laboratories: compare values within a part only.
Chain of UniProt Q15375 (whole entry, looked up): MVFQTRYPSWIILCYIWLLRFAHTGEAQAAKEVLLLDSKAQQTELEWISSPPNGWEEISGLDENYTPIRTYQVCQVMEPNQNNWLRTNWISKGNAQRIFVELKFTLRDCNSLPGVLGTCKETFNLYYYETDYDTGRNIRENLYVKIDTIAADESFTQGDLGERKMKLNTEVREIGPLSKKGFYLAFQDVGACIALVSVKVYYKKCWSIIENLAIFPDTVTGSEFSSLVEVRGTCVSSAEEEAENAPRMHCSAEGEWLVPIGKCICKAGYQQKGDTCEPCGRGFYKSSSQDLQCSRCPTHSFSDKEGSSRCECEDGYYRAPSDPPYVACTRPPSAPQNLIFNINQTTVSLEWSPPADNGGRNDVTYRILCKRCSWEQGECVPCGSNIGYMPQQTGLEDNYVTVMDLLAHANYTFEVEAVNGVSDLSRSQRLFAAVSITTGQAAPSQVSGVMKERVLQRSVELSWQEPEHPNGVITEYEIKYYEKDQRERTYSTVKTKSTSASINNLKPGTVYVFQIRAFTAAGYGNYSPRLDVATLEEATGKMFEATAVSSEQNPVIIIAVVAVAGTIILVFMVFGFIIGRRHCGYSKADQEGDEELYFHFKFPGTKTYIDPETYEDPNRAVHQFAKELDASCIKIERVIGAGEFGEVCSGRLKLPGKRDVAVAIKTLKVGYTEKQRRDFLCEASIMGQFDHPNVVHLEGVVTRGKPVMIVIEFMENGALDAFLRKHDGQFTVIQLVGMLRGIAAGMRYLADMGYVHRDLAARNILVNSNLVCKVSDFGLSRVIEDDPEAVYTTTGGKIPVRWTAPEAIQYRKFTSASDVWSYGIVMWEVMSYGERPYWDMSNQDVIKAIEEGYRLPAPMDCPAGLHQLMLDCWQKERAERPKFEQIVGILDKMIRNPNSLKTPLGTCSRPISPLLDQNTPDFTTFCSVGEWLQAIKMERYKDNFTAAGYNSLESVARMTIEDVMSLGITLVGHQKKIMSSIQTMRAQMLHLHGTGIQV
Chain of UniProt O75676 (whole entry, looked up): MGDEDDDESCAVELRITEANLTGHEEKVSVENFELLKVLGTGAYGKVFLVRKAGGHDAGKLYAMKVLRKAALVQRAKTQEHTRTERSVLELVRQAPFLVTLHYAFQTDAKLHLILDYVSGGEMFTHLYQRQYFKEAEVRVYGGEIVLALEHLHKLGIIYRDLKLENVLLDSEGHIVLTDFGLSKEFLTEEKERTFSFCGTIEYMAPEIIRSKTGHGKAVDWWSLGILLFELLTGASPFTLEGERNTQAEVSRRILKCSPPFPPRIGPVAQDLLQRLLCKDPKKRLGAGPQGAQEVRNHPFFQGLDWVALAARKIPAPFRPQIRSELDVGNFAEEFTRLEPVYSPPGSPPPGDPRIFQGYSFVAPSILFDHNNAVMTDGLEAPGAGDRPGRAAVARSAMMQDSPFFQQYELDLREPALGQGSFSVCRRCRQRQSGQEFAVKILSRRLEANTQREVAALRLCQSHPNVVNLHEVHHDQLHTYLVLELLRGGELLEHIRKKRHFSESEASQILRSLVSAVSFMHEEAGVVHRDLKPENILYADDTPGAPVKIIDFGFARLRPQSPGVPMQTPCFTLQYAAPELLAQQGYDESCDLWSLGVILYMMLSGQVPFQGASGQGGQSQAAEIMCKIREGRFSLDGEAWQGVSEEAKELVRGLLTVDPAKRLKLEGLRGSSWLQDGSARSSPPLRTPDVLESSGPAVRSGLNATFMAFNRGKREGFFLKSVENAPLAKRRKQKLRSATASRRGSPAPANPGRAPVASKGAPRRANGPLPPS
Chain of UniProt Q9UK32 (whole entry, looked up): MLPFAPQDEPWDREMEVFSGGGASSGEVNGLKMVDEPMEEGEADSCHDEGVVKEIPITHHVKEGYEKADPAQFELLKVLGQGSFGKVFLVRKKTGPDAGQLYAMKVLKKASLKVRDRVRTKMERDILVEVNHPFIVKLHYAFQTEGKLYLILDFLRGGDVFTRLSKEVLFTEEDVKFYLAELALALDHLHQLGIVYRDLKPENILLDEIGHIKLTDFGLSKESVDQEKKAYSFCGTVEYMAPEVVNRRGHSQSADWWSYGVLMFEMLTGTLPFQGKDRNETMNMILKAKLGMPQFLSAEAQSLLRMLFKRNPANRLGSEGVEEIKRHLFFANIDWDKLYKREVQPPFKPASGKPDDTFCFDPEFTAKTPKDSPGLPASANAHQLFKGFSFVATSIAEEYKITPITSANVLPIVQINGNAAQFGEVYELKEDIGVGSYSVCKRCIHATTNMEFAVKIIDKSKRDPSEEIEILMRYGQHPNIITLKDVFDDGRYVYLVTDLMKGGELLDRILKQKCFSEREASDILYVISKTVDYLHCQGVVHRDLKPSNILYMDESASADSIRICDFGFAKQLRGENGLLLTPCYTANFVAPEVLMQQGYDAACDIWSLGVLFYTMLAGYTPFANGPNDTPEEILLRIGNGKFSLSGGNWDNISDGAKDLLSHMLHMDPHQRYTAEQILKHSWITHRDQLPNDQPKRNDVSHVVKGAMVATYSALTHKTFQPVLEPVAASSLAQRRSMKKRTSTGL
Chain of UniProt O75716 (whole entry, looked up): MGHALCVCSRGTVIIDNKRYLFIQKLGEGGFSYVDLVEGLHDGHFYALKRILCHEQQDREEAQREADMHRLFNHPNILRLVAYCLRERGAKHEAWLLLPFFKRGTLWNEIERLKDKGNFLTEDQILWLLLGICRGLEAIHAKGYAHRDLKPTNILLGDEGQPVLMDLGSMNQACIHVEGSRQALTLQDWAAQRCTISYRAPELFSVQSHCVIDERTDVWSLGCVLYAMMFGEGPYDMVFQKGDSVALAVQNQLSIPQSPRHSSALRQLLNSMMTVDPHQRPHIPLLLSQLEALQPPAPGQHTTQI
Chain of UniProt Q9H2K8 (whole entry, looked up): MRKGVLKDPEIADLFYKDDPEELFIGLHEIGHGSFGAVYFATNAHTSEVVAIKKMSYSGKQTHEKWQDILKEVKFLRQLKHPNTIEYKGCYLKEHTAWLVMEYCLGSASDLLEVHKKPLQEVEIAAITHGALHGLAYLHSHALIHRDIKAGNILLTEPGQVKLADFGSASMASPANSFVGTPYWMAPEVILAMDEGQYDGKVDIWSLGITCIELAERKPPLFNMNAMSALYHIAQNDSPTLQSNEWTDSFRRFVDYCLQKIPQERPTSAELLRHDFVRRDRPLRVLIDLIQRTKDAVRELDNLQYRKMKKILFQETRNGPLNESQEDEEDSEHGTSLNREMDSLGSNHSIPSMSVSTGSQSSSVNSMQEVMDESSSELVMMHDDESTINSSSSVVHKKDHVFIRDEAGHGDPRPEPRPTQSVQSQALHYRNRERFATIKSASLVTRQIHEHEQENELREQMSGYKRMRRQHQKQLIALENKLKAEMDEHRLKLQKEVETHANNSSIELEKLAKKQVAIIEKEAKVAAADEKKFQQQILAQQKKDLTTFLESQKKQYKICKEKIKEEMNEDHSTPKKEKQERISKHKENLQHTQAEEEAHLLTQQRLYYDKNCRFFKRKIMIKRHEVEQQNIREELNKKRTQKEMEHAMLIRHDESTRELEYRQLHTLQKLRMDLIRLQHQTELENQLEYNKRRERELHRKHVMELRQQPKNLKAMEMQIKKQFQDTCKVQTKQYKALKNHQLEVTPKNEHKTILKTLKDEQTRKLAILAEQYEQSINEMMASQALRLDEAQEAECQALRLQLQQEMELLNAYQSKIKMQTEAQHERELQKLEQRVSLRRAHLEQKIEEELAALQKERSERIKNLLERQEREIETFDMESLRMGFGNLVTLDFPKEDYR
Chain of UniProt P30291 (whole entry, looked up): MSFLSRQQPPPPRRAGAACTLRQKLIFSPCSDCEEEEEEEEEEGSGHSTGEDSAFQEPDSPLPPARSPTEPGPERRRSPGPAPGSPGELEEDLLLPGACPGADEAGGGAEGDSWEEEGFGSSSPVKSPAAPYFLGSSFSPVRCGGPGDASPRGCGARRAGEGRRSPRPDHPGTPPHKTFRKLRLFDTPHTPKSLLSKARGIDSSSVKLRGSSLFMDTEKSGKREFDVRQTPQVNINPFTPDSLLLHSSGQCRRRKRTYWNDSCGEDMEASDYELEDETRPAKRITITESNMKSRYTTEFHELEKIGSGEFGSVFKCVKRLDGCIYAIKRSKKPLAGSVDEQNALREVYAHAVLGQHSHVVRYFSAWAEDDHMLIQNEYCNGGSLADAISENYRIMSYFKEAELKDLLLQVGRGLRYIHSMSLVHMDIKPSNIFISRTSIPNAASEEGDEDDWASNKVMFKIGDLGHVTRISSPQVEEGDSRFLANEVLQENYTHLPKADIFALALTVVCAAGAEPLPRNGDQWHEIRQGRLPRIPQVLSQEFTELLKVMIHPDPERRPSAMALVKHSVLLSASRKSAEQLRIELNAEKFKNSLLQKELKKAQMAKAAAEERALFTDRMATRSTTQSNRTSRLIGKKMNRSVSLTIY
Chain of UniProt P51956 (whole entry, looked up): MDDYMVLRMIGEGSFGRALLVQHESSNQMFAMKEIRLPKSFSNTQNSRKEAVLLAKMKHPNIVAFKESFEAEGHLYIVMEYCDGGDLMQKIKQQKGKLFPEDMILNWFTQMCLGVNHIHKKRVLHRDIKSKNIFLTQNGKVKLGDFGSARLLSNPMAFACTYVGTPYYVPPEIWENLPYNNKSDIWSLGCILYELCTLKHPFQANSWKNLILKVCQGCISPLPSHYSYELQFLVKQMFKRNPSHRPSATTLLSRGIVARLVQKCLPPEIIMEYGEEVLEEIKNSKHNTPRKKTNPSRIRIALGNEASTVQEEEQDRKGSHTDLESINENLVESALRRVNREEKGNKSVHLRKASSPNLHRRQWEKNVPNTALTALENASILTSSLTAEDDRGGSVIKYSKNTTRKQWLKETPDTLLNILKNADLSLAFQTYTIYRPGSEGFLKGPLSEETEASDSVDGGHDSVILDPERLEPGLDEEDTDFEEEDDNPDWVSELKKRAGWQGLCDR

Set 1 — effect on: cell-free assay; technique: competition with immobilised ligand; tested at: 1 µM
SMILES: Cc1c(NC(=O)c2cc(C(N)=O)nc3cc(F)ccc23)c(C(F)(F)F)nn1Cc1ccc(C(C)(C)C)cc1
For TAOK3 (Homo sapiens, UniProt Q9H2K8): remaining binding read 45%.
The remaining binding was 100% (WEE1 (Homo sapiens, UniProt P30291)).
The remaining binding was 96% (CDC42BPB (Homo sapiens, UniProt Q9Y5S2)).
It gave 100% for remaining binding (BMP2K (Homo sapiens, UniProt Q9NSY1)).
The remaining binding was 92% (Ribosomal protein S6 kinase alpha-4, N-terminal kinase domain (RPS6KA4, Homo sapiens, UniProt O75676)).
The remaining binding was 83% (STK16 (Homo sapiens, UniProt O75716)).
The remaining binding was 100% (EPHA7 (Homo sapiens, UniProt Q15375)).
The remaining binding was 100% (NEK3 (Homo sapiens, UniProt P51956)).
It gave 100% for remaining binding (Ribosomal protein S6 kinase alpha-6, C-terminal kinase domain (RPS6KA6, Homo sapiens, UniProt Q9UK32)).

Set 2 — host: human; matrix: microsomes or S9; tested at: 2 µM; time: 0.5 h
With `COc1ccc(-c2nc(-c3ccc(C)cc3)no2)c(OC)c1` the remaining compound was > 100%.
The remaining compound of `Oc1cc(-c2ccc(-c3ccc(Br)cc3)cc2)nn1-c1ccccn1` is reported as > 99%.
With `CC(C)(C)c1ccc(S(=O)(=O)n2ccnc2)cc1` the remaining compound was > 99%.
For `Cc1n[nH]cc1CNC(=O)c1ccc(Cn2c(=O)c3cccn3c3cccnc32)o1`, the remaining compound was 10.6%.
`CCS(=O)(=O)N1CCN(c2ccc(Cl)c(Cl)c2)CC1` gave a remaining compound of 87%.
For `CCCn1nc(C)c(-c2cncn2CCn2nc(C)c(C)c2C)c1C`, the remaining compound was 43.2%.
For `CCn1cc(S(=O)(=O)N2CCN(S(=O)(=O)c3cnn(C)c3)CC2)cn1`, the remaining compound was 79.6%.

Set 3 — effect on: enzyme activity; mode: inhibitor; tested at: 0.5 µM; relative to: control
Target: Mitogen-activated protein kinase kinase kinase 2 (MAP3K2, Homo sapiens, UniProt Q9Y2U5)
Construct (Q9Y2U5 1-619): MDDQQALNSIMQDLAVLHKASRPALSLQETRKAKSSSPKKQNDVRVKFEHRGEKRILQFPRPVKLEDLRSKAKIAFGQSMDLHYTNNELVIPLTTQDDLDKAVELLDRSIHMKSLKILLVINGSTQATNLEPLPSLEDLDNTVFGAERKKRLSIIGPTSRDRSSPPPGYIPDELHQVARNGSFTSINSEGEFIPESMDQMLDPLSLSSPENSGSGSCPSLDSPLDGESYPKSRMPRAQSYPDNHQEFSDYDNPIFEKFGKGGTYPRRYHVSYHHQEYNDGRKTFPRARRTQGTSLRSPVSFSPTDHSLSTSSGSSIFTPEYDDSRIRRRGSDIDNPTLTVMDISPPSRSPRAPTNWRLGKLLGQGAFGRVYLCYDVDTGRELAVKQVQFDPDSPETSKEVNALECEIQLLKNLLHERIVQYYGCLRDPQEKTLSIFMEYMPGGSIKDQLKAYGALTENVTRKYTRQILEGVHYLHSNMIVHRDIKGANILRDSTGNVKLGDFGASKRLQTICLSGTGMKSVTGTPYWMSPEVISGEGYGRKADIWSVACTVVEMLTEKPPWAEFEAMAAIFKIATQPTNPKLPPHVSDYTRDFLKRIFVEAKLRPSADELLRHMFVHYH
The remaining activity of `Nc1nc(Nc2ccc(S(N)(=O)=O)cc2)nn1C(=S)Nc1c(F)cccc1F` is reported as -0.498%.
The remaining activity of `O=C1Nc2ccc(Br)cc2/C1=C/c1cc2c([nH]1)CCCC2` is reported as 93.6%.
The remaining activity of `c1ccc(-c2n[nH]c3c2oc2ccccc23)cc1` is reported as 85.9%.
`COc1ccc2c(c1)c(C1=C(c3c[nH]c4ccccc34)C(=O)NC1=O)cn2CCCN(C)C` gave a remaining activity of 80.6%.
`O=C(c1ccccc1)c1ccc(N2CCOCC2)cc1O` gave a remaining activity of 102%.
With `COc1ccc(COc2ccc(Cc3cnc(N)nc3N)cc2OC)cc1` the remaining activity was 108%.
`O=C1Cc2c([nH]c3ccc(Br)cc23)-c2ccccc2N1` gave a remaining activity of 94.2%.
With `O=C(c1cc2cc(O)ccc2[nH]1)c1cc2cc(O)ccc2[nH]1` the remaining activity was 102%.
The remaining activity of `CCN(CC)CCCCN1c2ccccc2Oc2ccc(Cl)cc21` is reported as 88.2%.
`N#CC(c1ccnc(NCCc2cccnc2)n1)c1nc2ccccc2s1` (centres unmarked) gave a remaining activity of 98.1%.
For `O=C1Nc2ccccc2/C1=C\c1c(Cl)[nH]c2ccccc12`, the remaining activity was 94%.
For `COc1cc2c(N3CCN(C(=O)Nc4ccc(OC(C)C)cc4)CC3)ncnc2cc1OCCCN1CCCCC1`, the remaining activity was 103%.
`NC(=O)c1cccc(-c2cc(Nc3ccc(OC(F)(F)F)cc3)ncn2)c1` gave a remaining activity of 79.5%.
With `Cc1ccc(S(=O)(=O)/C=C/C#N)cc1` the remaining activity was 91.8%.
For `O=C1NC(=O)c2c1c1c3ccccc3[nH]c1c1[nH]c3cc(Br)ccc3c21`, the remaining activity was 100%.
`COc1cccc(-c2cc(=O)c3ccccc3o2)c1N` has a remaining activity of 103%.
`O=c1cc(N2CCOCC2)oc2c(-c3ccccc3)cccc12` gave a remaining activity of 101%.
For `O=C1c2ccccc2-c2nc3nnnn3nc21`, the remaining activity was 83%.
With `c1ccc2c(-c3ccncc3)c[nH]c2c1` the remaining activity was 94.9%.
For `CN(C)S(=O)(=O)c1ccc2c(c1)/C(=C/c1cc3c([nH]1)CCCC3)C(=O)N2`, the remaining activity was 37%.
For `Oc1cccc(-c2nc(N3CCOCC3)c3oc4ncccc4c3n2)c1`, the remaining activity was 103%.
The remaining activity of `CCCCc1c(-c2ccc(OC)cc2)[nH]c2nccnc12` is reported as 90.9%.
With `O=Nc1c(-c2c(O)[nH]c3ccccc23)[nH]c2ccccc12` the remaining activity was 94.6%.
For `c1cc(-c2cnn3cc(-c4ccc(OCCN5CCCCC5)cc4)cnc23)ccn1`, the remaining activity was 92.1%.
`O=Nc1c(-c2c(O)[nH]c3cc(Br)ccc23)[nH]c2ccccc12` gave a remaining activity of 90.3%.

Set 4 — cell line: HaCaT; tested at: 100 µM; time: 36 h
`CCCNC(C)C(=O)Nc1c(C)csc1C(=O)OC` (centres unmarked) gave a viability of 97.4%.
The viability of `CCN1CCN(c2cc(-c3ccc(F)cc3)c3c(n2)CCCCCC3)CC1` is reported as 113%.
With `CC(=O)OCC(=O)[C@@]12OC3(CCCC3)O[C@@H]1C[C@H]1[C@@H]3CCC4=CC(=O)C=C[C@]4(C)[C@@]3(F)[C@@H](O)C[C@@]12C` the viability was 76.5%.
`CCOc1ccc(Cc2nccc3cc(OCC)c(OCC)cc23)cc1OCC` has a viability of 23%.
With `NCCNc1ccc(NCCN)c2c1C(=O)c1ccncc1C2=O` the viability was 4.87%.
With `CCN(CC)CCOCCOC(=O)C(CC)(CC)c1ccccc1` the viability was 34.2%.
For `CCOc1nc2cccc(C(=O)O)c2n1Cc1ccc(-c2ccccc2-c2nnn[nH]2)cc1`, the viability was 95.7%.
`CO/N=C(\C(=O)N[C@@H]1C(=O)N2C(C(=O)O)=C(CSc3nnnn3C)CS[C@H]12)c1csc(N)n1` gave a viability of 126%.
For `O=C(C1CCCCC1)N1CC(=O)N2CCc3ccccc3C2C1` (centres unmarked), the viability was 94.9%.

Excerpt of the above (set 4):
`CCCNC(C)C(=O)Nc1c(C)csc1C(=O)OC` (centres unmarked) gave a viability of 97.4%.
The viability of `CCN1CCN(c2cc(-c3ccc(F)cc3)c3c(n2)CCCCCC3)CC1` is reported as 113%.
With `CC(=O)OCC(=O)[C@@]12OC3(CCCC3)O[C@@H]1C[C@H]1[C@@H]3CCC4=CC(=O)C=C[C@]4(C)[C@@]3(F)[C@@H](O)C[C@@]12C` the viability was 76.5%.
`CCOc1ccc(Cc2nccc3cc(OCC)c(OCC)cc23)cc1OCC` has a viability of 23%.
With `NCCNc1ccc(NCCN)c2c1C(=O)c1ccncc1C2=O` the viability was 4.87%.
